Assay results from different studies.
Each line is one published result; not all experiments were run side by side. ± gives the spread as reported. In brackets after ≈: the same amount, converted by molar mass.

| Compound | assay | system | conditions | scale | quantity | result |
| --- | --- | --- | --- | --- | --- | --- |
| COc1cccc(OC)c1-c1cc(C(=O)NC2(C(=O)O)C3CC4CC(C3)CC2C4)nn1-c1ccc(C(=O)N(C)CCCN(C)CCCN(C)C(=O)[C@H](CCCCNC(=O)[C@H](CC(C)C)NC(=O)C2OC2C(=O)O)NC(=O)CN2CCN(CC(=O)[O-])CCN(CC(=O)[O-])CCN(CC(=O)[O-])CC2)cc1C(C)C.[177Lu+3] (mixture of isomers) |  | mouse, HT-29 xenograft | 72 h post injection, biodistribution | baseline: tumour over bone uptake | tumour-to-bone ratio | 38.8 |
| CC[C@H](C)[C@@H]1NC(=O)[C@H](Cc2ccc(O)cc2)NC(=O)CCCSC[C@@H](C(=O)N(CC(=O)N[C@@H](CC(C)C)C(=O)NCC(N)=O)Cc2ccc(F)cc2)NC(=O)[C@H](CC(N)=O)NC(=O)[C@H](CCC(N)=O)NC1=O |  | human | intranasal, 400 µg repeated doses |  | drug-related headache | 17% |
| O=C(c1ccc(C2CCCCC2)cc1)N1CCCC1 | liver microsome stability | dog liver microsomes | 1 µM |  | hepatic clearance | 30 mL/min/kg |
| Cc1nc(N)nc2c1C(=O)N[C@@H](c1ccc(F)cc1-c1cccc(O[11CH3])n1)C2 | ex vivo biodistribution | healthy mice, muscle | 60 min post-injection, baseline, vehicle pre-treatment |  | tracer uptake | 14.8 ± 12.7 %ID |
| Cc1ccc(OCC(=O)N(Cc2cccs2)c2ccn[nH]2)cc1 |  | rat plasma | 750 ng/mL, 1 h, 37 °C, unit not given | baseline: time zero | remaining compound | 0.7 |
| CN([O-])C(=O)CN1CCN(CC(=O)N(C)[O-])CCN(Cc2ccccn2)CC1.[89Zr+4] |  | mouse, liver | intravenous, 24 h |  | tracer uptake | 0.45 %ID/g |
| O=S1(=O)CC2CCCCC2CS1 (centres unmarked) | phase solubility, NMR | water | 25 °C, together with: hydroxypropyl-β-cyclodextrin 571 mM |  | solubility | 64.8 mM (≈ 13.4 mg/mL) |
| CC(=O)Nc1ccc([C@H]2[C@@H](F)[C@@H](F)C[C@@H](F)[C@H]2F)cc1 | hepatocyte stability | cryopreserved rat hepatocytes | 1 µM |  | hepatic clearance | 11 mL/min/kg |
| C=CC(=O)N1CCCC(n2c(=O)c3ncccc3n(Cc3ccc(Oc4ccccc4)cc3)c2=O)C1 (centres unmarked) | metabolic stability | human, hepatocytes | 1 µM, 1 h |  | compound remaining | 48.1% |
| O=C(O)Cc1ccccc1Nc1c(Cl)cccc1Cl |  | human liver microsomes | 1 nM |  | hepatic intrinsic clearance | 114 mL/min/kg |
| CC(=O)N([O-])CCCCCNC(=O)CCC(=O)N([O-])CCCCCNC(=O)CCC(=O)N([O-])CCCCCN.[89Zr+4] | radio-TLC | aqueous buffer | 1 d, pH 7.2, 37 °C, 89Zr-labelled complex, together with: CuCl2 10-fold excess |  | intact complex | 98.6 ± 0.6% |
| O=C(CCC(F)(F)F)Nc1ccc(C2CCCCC2)cc1 | hepatocyte stability | cryopreserved human hepatocytes | 1 µM |  | hepatic clearance | 18 mL/min/kg |
| COc1cc2c(cc1O)CCN1C[C@@H](CC(C)C)[C@H](O)C[C@H]21 | measured: non-deuterated analyte | healthy human male, plasma | oral, 25 mg, median, [14C]-tetrabenazine dosed |  | Tlag | 0.5 h |
| O=C(NCCO)c1ccc(C2CCCCC2)cc1 | liver microsome stability | dog liver microsomes | 1 µM |  | hepatic clearance | 28 mL/min/kg |
| CN1CCC[C@]1(C)/C=C/S(=O)(=O)NC(=O)Nc1c2c(cc3c1CC(O)C3)CCC2 (some centres unmarked) |  | human, plasma | oral, 12.5 mg twice daily of parent drug, day 14, metabolite of dosed drug |  | AUC(0-inf) | 51100 ng·h/mL |
| CS(=O)(=O)c1ccc(-c2ccc([C@H]3[C@@H](F)[C@@H](F)C[C@@H](F)[C@H]3F)cc2)cn1 | hepatocyte stability | cryopreserved rat hepatocytes | 1 µM |  | hepatic clearance | 10 mL/min/kg |
| CCN(CC)c1ccc2c(c1)O[B-]1(c3ccccc3C#N)OC(=O)C(c3ccccc3)=N[N+]1=C2 (centres unmarked) |  | toluene |  |  | fluorescence emission maximum | 515 nm |

Repeated from above:
| Compound | assay | system | conditions | scale | quantity | result |
| --- | --- | --- | --- | --- | --- | --- |
| CCN(CC)c1ccc2c(c1)O[B-]1(c3ccccc3C#N)OC(=O)C(c3ccccc3)=N[N+]1=C2 (centres unmarked) |  | toluene |  |  | fluorescence emission maximum | 515 nm |
| Cc1nc(N)nc2c1C(=O)N[C@@H](c1ccc(F)cc1-c1cccc(O[11CH3])n1)C2 | ex vivo biodistribution | healthy mice, muscle | 60 min post-injection, baseline, vehicle pre-treatment |  | tracer uptake | 14.8 ± 12.7 %ID |
